Measured values pooled from the literature.
Parts stem from different laboratories: compare values within a part only. Positions count from the first letter of the parent shown.

Block 1
Target: CCNA2, cyclin fold, Cln2 fusion (human)
Technique: yeast growth competition, sequencing
Medium: yeast
Notes: strong parent motif
Relative to: not given
Reading: higher = stronger binding
Starting sequence: E2F1 docking peptide (human); PPVKRRLDLETDH
Variant | normalised enrichment score
PPVKRILDLETDH [R6I] | 0.619
PPVKRRFDLETDH [L7F] | -0.341
PPVKRRLDLEGDH [T11G] | 4.44
PKVKRRLDLETDH [P2K] | 4.66
PPVKCRLDLETDH [R5C] | 0.393
PPVKRRLDLYTDH [E10Y] | 3.86
PPVKRRLDLETFH [D12F] | 5.15
PPVKRRSDLETDH [L7S] | -0.171
PPVKQRLDLETDH [R5Q] | 0.145
PPVKRRNDLETDH [L7N] | 0.448
PPVKGRLDLETDH [R5G] | 0.522
PPVKRRQDLETDH [L7Q] | -0.116
PPVKRSLDLETDH [R6S] | 1.44
PPVKRNLDLETDH [R6N] | 0.444
PPVKRRLDLETDK [H13K] | 5.06
PPVKMRLDLETDH [R5M] | 0.426
PPVKYRLDLETDH [R5Y] | 0.557
PPEKRRLDLETDH [V3E] | 0.233

Block 2
Target: Centromere-binding protein 1, full length, His-tagged (CBF1, Saccharomyces cerevisiae, UniProt P17106, residues 1-351)
Sequence of UniProt P17106 (whole entry, looked up): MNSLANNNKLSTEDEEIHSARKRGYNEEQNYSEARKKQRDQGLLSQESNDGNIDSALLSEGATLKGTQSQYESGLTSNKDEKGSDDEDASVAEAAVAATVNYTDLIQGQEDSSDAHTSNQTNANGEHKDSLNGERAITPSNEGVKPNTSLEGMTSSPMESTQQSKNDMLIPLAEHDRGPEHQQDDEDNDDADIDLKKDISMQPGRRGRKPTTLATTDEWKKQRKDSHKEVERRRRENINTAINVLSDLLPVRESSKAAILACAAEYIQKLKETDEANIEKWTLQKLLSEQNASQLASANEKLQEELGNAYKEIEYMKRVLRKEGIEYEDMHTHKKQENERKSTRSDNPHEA
Technique: competition protein-binding microarray
Form: double-stranded DNA, one strand shown
Medium: in vitro
Tested at: 2 µM
Notes: whole 60-bp probe, lowest competitor level
With: Pho4 competitor, 0.05 µM
Reading: higher = stronger binding
Constant ends, left off below: … GTCTTGATTCGCTTGACGCTGCTG
Sequence | fluorescence intensity [a.u.]
GTTACCTAATAACTTCATGTGATATGCTCCCCCTTC | 287
GGATTAGACAATGGAGAAGATGGGATGAGACACATT | 66.6
CTTTCCCGATCTTGCTGTGTGGGTGTAGCACATTTG | 73.3
TGCGCAACAACTTGACATGTGGGTGTATGTCTAGAA | 90.9
AAATGTATACCACTTCACGTGCCAGCGAGTAGGTTT | 872
GTCTTGTCTCATTTTCACGTGAAATTCCCCACTTCA | 680
CTTTATGAGTACCGTCACGTTTCTTGTTGAAGATAA | 498
AAAGCGGTAATTTGATACGTGGGTGCAGATATCTAT | 60.1
CGGGGTTAAGTTTGTCACACCACTTGCTTGCAGCAG | 105
AACCAGACGAGGTATTGCATGACGCGGAAATCGCAA | 81.7
GCAAAGAAATAGGATCGCGTGGAACTGGATCGTACA | 70.1
GGATTTGGCTACGGCCACGTCCAATTTTCACTTGCT | 63.3
GATGAGTGAGGAGAAAACGTGCAAATAATAAAATTA | 301
AAATTACTAAGTTGGTCGGTGGGTGACGCCGTATGA | 69.1
GATCTTGGATACGACCGTGTGACGCCCGAGACTCTT | 58.3
AAAGCGGTAATTTGTTTCGTGGGTGCAGATATCTAT | 78.1
TGCAAGTTAAAGCGGTCCGTGCCAGATTGGACGAGT | 70.3
CGGGGTTAAGTTTGAACGGTGGGTGGCTTGCAGCAG | 63.6
CGGGGTTAAGTTTGCAAGGTGGGTGGCTTGCAGCAG | 63.6
TCTCCCAAAATTTCACACGTGATGGGATGATTTTGG | 2980
TACCTGGGCATCCATCACGCTTCAGCCGCTCTGTGT | 76.3
GGTCCGGAACTGGTGTGCATGACAGCCGCGGAATGC | 56.9
CTTCTGTAAATTTGGCGAGTGGGTGGACGCGCCCCG | 85.9
TCTACAAGAGGTACCCACGTATTGCTCCATTGAGAG | 59.7
CTTCTGTAAATTTGCCGAGTGGGTGGACGCGCCCCG | 76.4

Block 3
Target: ABI1, truncated, D143A, DHFR fusion (Arabidopsis thaliana)
Technique: DHFR PCA, deep sequencing
Medium: yeast
Notes: methotrexate growth selection, single substitutions
With: (+)-ABA 0.0091 µM
Relative to: wild-type fitted maximum
Reading: higher = stronger binding
Starting sequence: PYL1, truncated, DHFR fusion (Arabidopsis thaliana); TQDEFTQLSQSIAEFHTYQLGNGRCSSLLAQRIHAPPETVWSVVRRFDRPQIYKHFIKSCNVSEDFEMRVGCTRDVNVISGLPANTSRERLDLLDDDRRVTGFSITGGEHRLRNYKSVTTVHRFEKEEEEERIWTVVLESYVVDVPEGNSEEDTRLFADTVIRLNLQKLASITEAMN; partner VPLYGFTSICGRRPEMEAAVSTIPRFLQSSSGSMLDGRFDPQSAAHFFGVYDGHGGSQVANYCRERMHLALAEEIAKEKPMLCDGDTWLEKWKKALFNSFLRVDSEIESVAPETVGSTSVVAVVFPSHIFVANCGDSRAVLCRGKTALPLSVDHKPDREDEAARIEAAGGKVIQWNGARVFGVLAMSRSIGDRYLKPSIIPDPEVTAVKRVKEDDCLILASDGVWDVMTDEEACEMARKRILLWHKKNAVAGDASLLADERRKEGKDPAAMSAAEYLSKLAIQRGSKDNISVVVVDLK
Variant | relative binding score [%]
V44P | -4.32
S42D | 18.3
I33L | -1.38
N22L | 18.4
F157D | -0.567
E14N | 5.45
L169G | -1.88
F5Y | 40.2
A30G | 6.78
D144L | -3.36
S11V | 34.4
A170L | -7.92
T101S | -2.27
L29D | 3.14

Block 4
Target: Histone acetyltransferase KAT6A, both winged helices, GST fusion (KAT6A, Homo sapiens, UniProt Q92794, residues 1-181)
Technique: protein binding microarray
Form: double-stranded DNA, one strand shown
Medium: in vitro
Tested at: not given
Notes: 8-mer, flanks averaged, mean of 2 arrays, mostly near background
Relative to: not given
Reading: higher = stronger binding
Residues (chain): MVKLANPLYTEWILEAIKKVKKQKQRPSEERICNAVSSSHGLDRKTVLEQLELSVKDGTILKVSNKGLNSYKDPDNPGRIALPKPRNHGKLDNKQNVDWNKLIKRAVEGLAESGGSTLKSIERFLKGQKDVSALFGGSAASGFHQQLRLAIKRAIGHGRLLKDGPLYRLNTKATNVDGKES
Sequence | E-score
AGTGTTAC | -0.0925
AATATGGT | -0.0775
CGAGACGA | -0.0373
CACCGCTC | 0.168
GAAAATTC | 0.0877
GCTTTACA | 0.0741
CCTTTTCC | -0.0951
GGGGGAAA | -0.0638
CTGTCAAG | -0.157
CTGCTAAG | -0.251
CATCTACA | -0.109
GAGGCACA | -0.186
CCACCAAG | -0.2
AGTGCACC | -0.0986
ATACTGAA | -0.0386
ATAGCGGG | 0.15
GTGATAAA | 0.127
ATAATTGG | -0.0744
CTCACGTC | -0.0895

Block 5
Target: Sal-like protein 4, full length isoform B (SALL4, Homo sapiens, UniProt Q9UJQ4-2, residues 1-616)
Technique: universal PBM
Form: double-stranded DNA, one strand shown
Medium: in vitro
Tested at: not given
Notes: 8-mer, flanks averaged, mean of replicates
Reading: higher = stronger binding
Sequence | E-score
CGATCCTA | -0.0985
AAATCGTC | 0.116
GCAGTCGA | -0.124
GGAGCAGA | -0.0928
CGTCCACG | -0.179
AAAATGGT | 0.251
AGCCTGAA | 0.0191
ACTACTGA | -0.0534
CCAACACA | 0.137
CGATTGGA | -0.113
CGGCTCTA | -0.135
ACCGTTGG | -0.254
GCCCCGGA | -0.42
AAACGGCG | -0.0791
TGAGTACA | 0.112
AGGGGTGA | -0.161
CGGCTACG | -0.258
CATCGTAC | 0.147
AAACACGA | 0.104
TACCTCAA | 0.0329
TGTAAGAA | 0.134
CATTACAA | 0.261
TCTGGAAA | 0.13
AGGTTAAA | 0.155
AAGGGAGA | -0.00233

Block 6
Target: Interferon regulatory factor 5, full length, phosphomimetic (IRF5, Homo sapiens, UniProt Q13568-2, residues 1-514, S451D/S453D/S456D/S462D)
Technique: protein-binding microarray
Form: double-stranded DNA, one strand shown
Medium: in vitro
Tested at: 940 nM top
Notes: 60-bp whole probe
With: salmon DNA 0.4 mg/ml
Relative to: random background probes
Reading: higher = stronger binding
Constant ends, left off below: GCCTAGCAC … GTCTTGATTCGCTTGACGCTGCTG
Sequence | fitted relative affinity [z-score]
GACGATTTGGGGTTTCGAGACGTGCTA | 2.41
CTCCTTCTCTAACCTCTCTAAGTGCTA | 1.27
GACGGTTCCCGTTTCCTGACGTGCTAG | 0.42
TTGTGTTTTCATTTTATGACGTGCTAG | 1.02
AGAAACTTGTATTTGTCCCTGTGCTAG | 2.38
TTTATTTTTACATTATTACCGTGCTAG | 0.914
TTCATTTTTTTTTTCATCATGTGCTAG | 1.91
TTAGATATCAGCCTGGATTAGTGCTAG | -0.322
TCATGTCTTCCCCTCTCACTGTGCTAG | 0.775
TTAGATATCAGTCTCGAGTAGTGCTAG | 0.991
TCAAACTTCTCCACTGAAACTGTGCTA | 0.691
TTAGGTTTCCTACTGCTATAGTGCTAG | 0.652
TATTACCTCATCTTTCCCTGCGTGCTA | 1.07
AACGGTTTCGGGACTGGGGACGTGCTA | 7.19
GACGGTATTCTTTTCCTGACGTGCTAG | 0.629
TTCGGTATCCTACTGCTTTAGTGCTAG | 0.38
AAAAATGATTGGTTGAACATGTGCTAG | -0.579
TCAGGTTTCGGTCTCGGTTAGTGCTAG | 14
CACGGTTTCGGGACTGGGGACGTGCTA | 6.2
TCATCTCCCAAGTCTTGTACTGTGCTA | 0.793
CACGATATCGGGTATCGAGACGTGCTA | 1.08
TTAGGACTGCTTTACCTTTAGTGCTAG | -0.0476
TCAGATTCCAGTTTCGATTAGTGCTAG | 8.72
TAAGGACTGGGGTTTCGGTTAGTGCTA | 5.69
CTAACTTTCCAATTGTCCTTGTGCTAG | 1.28

A few entries again (block 5):
Sequence | E-score
GGAGCAGA | -0.0928
CGTCCACG | -0.179
AAAATGGT | 0.251
AGCCTGAA | 0.0191
ACTACTGA | -0.0534
CCAACACA | 0.137
CGATTGGA | -0.113
CGGCTCTA | -0.135
ACCGTTGG | -0.254
GCCCCGGA | -0.42
AAACGGCG | -0.0791
TGAGTACA | 0.112
AGGGGTGA | -0.161
CGGCTACG | -0.258
CATCGTAC | 0.147
AAACACGA | 0.104
TACCTCAA | 0.0329
TGTAAGAA | 0.134
